Published values of several laboratories.
Compare with care: the assays were run in different laboratories. ± gives the spread as reported. Non-standard residues stand in square brackets, D forms with d. Square brackets hold non-standard residues; d marks the D form. Ends that are not written are not given here. No end group written: not given here.
EIF4E2: EIF4E2 (Homo sapiens, UniProt O60573)
Chain of UniProt O60573 (whole entry, looked up): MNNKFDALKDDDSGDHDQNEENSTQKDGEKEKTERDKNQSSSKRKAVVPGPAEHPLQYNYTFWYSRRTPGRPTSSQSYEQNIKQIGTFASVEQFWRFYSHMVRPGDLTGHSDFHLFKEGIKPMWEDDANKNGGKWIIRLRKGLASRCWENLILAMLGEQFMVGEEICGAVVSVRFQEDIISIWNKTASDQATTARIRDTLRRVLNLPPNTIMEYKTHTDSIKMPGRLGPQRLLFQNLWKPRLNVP
T1: Nedd4 HECT domain; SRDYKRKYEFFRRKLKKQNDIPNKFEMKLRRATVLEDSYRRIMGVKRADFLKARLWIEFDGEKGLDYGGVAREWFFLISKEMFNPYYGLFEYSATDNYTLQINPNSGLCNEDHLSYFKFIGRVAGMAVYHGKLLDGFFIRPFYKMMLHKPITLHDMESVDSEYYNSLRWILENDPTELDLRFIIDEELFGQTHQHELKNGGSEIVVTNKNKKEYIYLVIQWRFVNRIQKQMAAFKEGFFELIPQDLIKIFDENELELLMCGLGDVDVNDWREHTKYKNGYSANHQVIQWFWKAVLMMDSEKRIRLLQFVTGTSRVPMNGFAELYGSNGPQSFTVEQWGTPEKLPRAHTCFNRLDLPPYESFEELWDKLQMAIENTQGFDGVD
B1: UGT1A9 (Homo sapiens, UniProt O60656); chain GKLLVVPMDGSHWFTMRSVVEKLILRGHEVVVVMPEVSWQLGRSLNCTVKTYSTSYTLEDLDREFKAFAHAQWKAQVRSIYSLLMGSYNDIFDLFFSNCRSLFKDKKLVEYLKESSFDAVFLDPFDNCGLIVAKYFSLPSVVFARGILCHYLEEGAQCPAPLSYVPRILLGFSDAMTFKERVRNHIMHLEEHLLCHRFFKNALEIASEILQTPVTEYDLYSHTSIWLLRTDFVLDYPKPVMPNMIFIGGINCHQGKPLPMEFEAYINASGEHGIVVFSLGSMVSEIPEKKAMAIADALGKIPQTVLWRYTGTRPSNLANNTILVKWLPQNDLLGHPMTRAFITHAGSHGVYESICNGVPMVMMPLFGDQMDNAKRMETKGAGVTLNVLEMTSEDLENALKAVINDKSYKENIMRLSSLHKDRPVEPLDLAVFWVEFVMRHKGAPHLRPAAHDLTWYQYHSLDVIGFLLAVVLTVAFITFKCCAYGYRKCLGKKGRVKKAHKSKTH
B2: NEDD4L 492-581 (Homo sapiens, UniProt Q96PU5); chain HKVTQSFLPPGWEMRIAPNGRPFFIDHNTKTTTWEDPRLKFPVHMRSKTSLNPNDLGPLPPGWEERIHLDGRTFYIDHNSKITQWEDPRL
B3: enzyme (Bacillus pumilus, UniProt A8FFI9); chain EARSIAWSVDEFFKNREGTFVIQEVKEKSPWVYNKKRAKERFAPQSTFKVANALIGLQTGAVRDEYDIKYWDGVKREIDNWNRDHTLGSGMRDSVVWYYQAMARDIGEERMNHWVKAIHYGNKDISGGIDQFWLSSTLRISPIEQVRFLKQLYEETLPFDLKNMRTVKRMMVQEEEKHATLYGKTGSGSDIGWYVGFIKHEHKTYILATNIKGTGIEAKDITYRILKKYHLMEASV
B4: CITED2/HIF1A 216-246/796-826 (Homo sapiens); chain GSHMSNVIDTDFIDEEVLMSLVIEMGLDRIKELPELTSYDCEVNAPIQGSRNLLQGEELLRALDQVN
B5: rI 25-97 (T4 phage, UniProt P13304); selenomethionine; sequence looked up; chain NVDPHFDKFMESGIRHVYMLFENKSVESSEQFYSFMRTTYKNDPCSSDFECIERGAEMAQSYARIMNIKLETE
B6: recA 2-353 (Escherichia coli, UniProt P0A7G6); chain AIDENKQKALAAALGQIEKQFGKGSIMRLGEDRSMDVETISTGSLSLDIALGAGGLPMGRIVEIYGPESSGKTTLTLQVIAAAQREGKTCAFIDAEHALDPIYARKLGVDIDNLLCSQPDTGEQALEICDALARSGAVDVIVVDSVAALTPKAEIEGEIGDSHMGLAARMMSQAMRKLAGNLKQSNTLLIFINQIRMKIGVMFGNPETTTGGNALKFYASVRLDIRRIGAVKEGENVVGSETRVKVVKNKIAAPFKQAEFQILYGEGINFYGELVDLGVKEKLIEKAGAWYSYKGEKIGQGKANATAWLKDNPETAKEIEKKVRELLLSNPNSTPDFSVDDSEGVAETNEDF
B7: UBE2D3 (Homo sapiens, UniProt P61077); chain MALKRINKELSDLARDPPAQCSAGPVGDDMFHWQATIMGPNDSPYQGGVFFLTIHFPTDYPFKPPKVAFTTRIYHPNINSNGSICLDILRSQWSPALTISKVLLSICSLLCDPNPDDPLVPEIARIYKTDRDKYNRISREWTQKYAM
B8: MACROD2 7-243 (Homo sapiens, UniProt A1Z1Q3); sequence looked up; chain KKKVWREEKERLLKMTLEERRKEYLRDYIPLNSILSWKEEMKGKGQNDEENTQETSQVKKSLTEKVSLYRGDITLLEVDAIVNAANASLLGGGGVDGCIHRAAGPCLLAECRNLNGCDTGHAKITCGYDLPAKYVIHTVGPIARGHINGSHKEDLANCYKSSLKLVKENNIRSVAFPCISTGIYGFPNEPAAVIALNTIKEWLAKNHHEVDRIIFCVFLEVDFKIYKKKMNEFFSVD
B9: TIF4631 572-853 K590R (Saccharomyces cerevisiae, UniProt P39935); sequence looked up; chain LVPSANRWVPKFKSKKTERKLAPDGKTELLDKDEVERKMKSLLNKLTLEMFDAISSEILAIANISVWETNGETLKAVIEQIFLKACDEPHWSSMYAQLCGKVVKELNPDITDETNEGKTGPKLVLHYLVARCHAEFDKGWTDKLPTNEDGTPLEPEMMSEEYYAAASAKRRGLGLVRFIGFLYRLNLLTGKMMFECFRRLMKDLTDSPSEETLESVVELLNTVGEQFETDSFRTGQATLEGSQLLDSLFGILDNIIQTAKISSRIKFKLIDIKELRHDKNWN
B10: tatA I15C (Escherichia coli, UniProt P69428); MTSL spin label Cys15; sequence looked up; chain MGGISIWQLLIIAVCVVLLFGTKKLGSIGSDLGASIKGFKKAMSDDEPKQDKTSQDADFTAKTIADKQADTNQEQAKTEDAKRHDKEQV
B11: RNase B unfolded, reduced (UniProt P61823); N-glycan, DyLight 680 label; sequence looked up; chain KETAAAKFERQHMDSSTSAASSSNYCNQMMKSRNLTKDRCKPVNTFVHESLADVQAVCSQKNVACKNGQTNCYQSYSTMSITDCRETGSSKYPNCAYKTTQANKHIIVACEGNPYVPVHFDASV
B12: Il10rb 20-220 N49Q/N102Q/N161Q/N199Q (Mus musculus, UniProt Q61190); sequence looked up; chain MIPPPEKVRMNSVNFKNILQWEVPAFPKTQLTFTAQYESYRSFQDHCKRTASTQCDFSHLSKYGDYTVRVRAELADEHSEWVQVTFCPVEDTIIGPPEMQIESLAESLHLRFSAPQIENEPETWTLKNIYDSWAYRVQYWKQGTNEKFQVVSPYDSEVLRNLEPWTTYCIQVQGFLLDQQRTGEWSEPICERTGNDEITPS
B13: PUM2 471-704 (Homo sapiens, UniProt Q8TB72); sequence looked up; chain ISSAAAQAAAAAAAGGTASSLTGSTNGLFRPIGTQPPQQQQQQPSTNLQSNSFYGSSSLTNSSQSSSLFSHGPGQPGSTSLGFGSGNSLGAAIGSALSGFGSSVGSSASSSATRRESLSTSSDLYKRSSSSLAPIGQPFYNSLGFSSSPSPIGMPLPSQTPGHSLTPPPSLSSHGSSSSLHLGGLTNGSGRYISAAPGAEAKYRSASSTSSLFSSSSQLFPPSRLRYNRSDIMP
B14: SFN 1-231 (Homo sapiens, UniProt P31947); chain MERASLIQKAKLAEQAERYEDMAAFMKGAVEKGEELSCEERNLLSVAYKNVVGGQRAAWRVLSSIEQKSNEEGSEEKGPEVREYREKVETELQGVCDTVLGLLDSHLIKEAGDAESRVFYLKMKGDYYRYLAEVATGDDKKRIIDSARSAYQEAMDISKKEMPPTNPIRLGLALNFSVFHYEIANSPEEAISLAKTTFDEAMADLHTLSEDSYKDSTLIMQLLRDNLTLWT
Chain of UniProt Q92547 (whole entry, looked up): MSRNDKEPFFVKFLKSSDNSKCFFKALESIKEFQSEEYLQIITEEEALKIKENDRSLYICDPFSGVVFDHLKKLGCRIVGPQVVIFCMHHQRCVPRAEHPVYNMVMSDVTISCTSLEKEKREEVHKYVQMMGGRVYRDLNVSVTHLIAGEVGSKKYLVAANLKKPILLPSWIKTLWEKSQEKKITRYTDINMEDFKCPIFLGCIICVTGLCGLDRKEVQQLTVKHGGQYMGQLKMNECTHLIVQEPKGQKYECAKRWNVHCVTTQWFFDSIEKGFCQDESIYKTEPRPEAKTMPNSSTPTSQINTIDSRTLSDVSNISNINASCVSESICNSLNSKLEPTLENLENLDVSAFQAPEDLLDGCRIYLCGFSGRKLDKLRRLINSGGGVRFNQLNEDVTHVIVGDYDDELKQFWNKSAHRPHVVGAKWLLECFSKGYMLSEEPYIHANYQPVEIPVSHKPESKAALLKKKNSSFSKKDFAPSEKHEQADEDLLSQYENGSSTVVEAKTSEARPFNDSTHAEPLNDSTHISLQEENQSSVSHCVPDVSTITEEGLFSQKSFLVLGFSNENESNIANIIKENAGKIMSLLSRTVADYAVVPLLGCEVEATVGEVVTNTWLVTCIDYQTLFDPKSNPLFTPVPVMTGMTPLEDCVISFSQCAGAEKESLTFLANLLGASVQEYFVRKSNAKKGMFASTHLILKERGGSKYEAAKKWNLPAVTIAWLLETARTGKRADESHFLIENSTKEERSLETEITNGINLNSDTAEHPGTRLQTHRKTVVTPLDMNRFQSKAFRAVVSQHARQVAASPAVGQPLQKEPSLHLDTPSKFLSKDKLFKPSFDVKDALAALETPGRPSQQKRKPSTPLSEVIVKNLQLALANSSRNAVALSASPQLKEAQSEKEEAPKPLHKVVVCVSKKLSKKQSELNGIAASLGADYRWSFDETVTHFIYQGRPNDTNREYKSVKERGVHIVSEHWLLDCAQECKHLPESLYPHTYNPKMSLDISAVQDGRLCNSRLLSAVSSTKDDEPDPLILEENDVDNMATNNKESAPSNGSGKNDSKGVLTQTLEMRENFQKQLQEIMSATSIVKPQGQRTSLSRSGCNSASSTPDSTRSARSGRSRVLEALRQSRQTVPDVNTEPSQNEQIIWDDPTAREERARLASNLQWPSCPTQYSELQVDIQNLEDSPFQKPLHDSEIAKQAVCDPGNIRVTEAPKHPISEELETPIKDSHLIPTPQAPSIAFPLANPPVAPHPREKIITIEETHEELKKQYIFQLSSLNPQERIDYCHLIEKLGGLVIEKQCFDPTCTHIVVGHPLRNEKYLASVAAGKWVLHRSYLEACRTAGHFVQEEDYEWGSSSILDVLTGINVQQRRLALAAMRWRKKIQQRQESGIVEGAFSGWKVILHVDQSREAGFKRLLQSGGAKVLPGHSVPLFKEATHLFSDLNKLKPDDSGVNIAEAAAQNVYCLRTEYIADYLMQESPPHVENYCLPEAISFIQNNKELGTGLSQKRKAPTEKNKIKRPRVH
Chain of UniProt P29597 (whole entry, looked up): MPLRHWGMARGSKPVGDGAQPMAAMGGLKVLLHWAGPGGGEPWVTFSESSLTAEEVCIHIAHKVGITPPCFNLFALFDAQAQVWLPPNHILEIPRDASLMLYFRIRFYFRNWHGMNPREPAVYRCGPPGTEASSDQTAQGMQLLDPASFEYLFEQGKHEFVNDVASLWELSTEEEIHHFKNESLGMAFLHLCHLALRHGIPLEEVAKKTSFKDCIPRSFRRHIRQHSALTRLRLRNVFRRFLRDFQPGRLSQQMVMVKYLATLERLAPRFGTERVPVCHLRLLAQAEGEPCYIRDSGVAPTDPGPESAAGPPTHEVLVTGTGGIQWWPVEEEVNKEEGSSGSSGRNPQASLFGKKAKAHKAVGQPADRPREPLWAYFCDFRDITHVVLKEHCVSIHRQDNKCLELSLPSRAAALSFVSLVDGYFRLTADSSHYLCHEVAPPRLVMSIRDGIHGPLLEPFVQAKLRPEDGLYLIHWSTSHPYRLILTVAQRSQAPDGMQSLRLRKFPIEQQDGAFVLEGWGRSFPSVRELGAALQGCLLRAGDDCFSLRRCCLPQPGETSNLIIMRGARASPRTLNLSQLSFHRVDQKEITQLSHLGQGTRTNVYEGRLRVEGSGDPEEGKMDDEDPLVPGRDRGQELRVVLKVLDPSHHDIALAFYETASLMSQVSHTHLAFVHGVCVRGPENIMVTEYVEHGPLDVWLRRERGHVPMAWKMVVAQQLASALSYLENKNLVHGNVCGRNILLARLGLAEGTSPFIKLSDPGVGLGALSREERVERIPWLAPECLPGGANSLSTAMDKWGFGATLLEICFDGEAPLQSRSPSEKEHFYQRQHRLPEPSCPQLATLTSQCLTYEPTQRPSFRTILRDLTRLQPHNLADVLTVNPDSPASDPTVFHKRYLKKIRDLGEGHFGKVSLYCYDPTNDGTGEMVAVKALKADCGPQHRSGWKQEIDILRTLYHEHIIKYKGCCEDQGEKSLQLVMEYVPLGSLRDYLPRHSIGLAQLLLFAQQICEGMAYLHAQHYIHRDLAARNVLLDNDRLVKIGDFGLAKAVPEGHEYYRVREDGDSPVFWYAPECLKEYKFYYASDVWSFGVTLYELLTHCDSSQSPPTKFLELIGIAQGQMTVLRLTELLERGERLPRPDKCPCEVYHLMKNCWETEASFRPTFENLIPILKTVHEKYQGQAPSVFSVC
Chain of UniProt P06612 (whole entry, looked up): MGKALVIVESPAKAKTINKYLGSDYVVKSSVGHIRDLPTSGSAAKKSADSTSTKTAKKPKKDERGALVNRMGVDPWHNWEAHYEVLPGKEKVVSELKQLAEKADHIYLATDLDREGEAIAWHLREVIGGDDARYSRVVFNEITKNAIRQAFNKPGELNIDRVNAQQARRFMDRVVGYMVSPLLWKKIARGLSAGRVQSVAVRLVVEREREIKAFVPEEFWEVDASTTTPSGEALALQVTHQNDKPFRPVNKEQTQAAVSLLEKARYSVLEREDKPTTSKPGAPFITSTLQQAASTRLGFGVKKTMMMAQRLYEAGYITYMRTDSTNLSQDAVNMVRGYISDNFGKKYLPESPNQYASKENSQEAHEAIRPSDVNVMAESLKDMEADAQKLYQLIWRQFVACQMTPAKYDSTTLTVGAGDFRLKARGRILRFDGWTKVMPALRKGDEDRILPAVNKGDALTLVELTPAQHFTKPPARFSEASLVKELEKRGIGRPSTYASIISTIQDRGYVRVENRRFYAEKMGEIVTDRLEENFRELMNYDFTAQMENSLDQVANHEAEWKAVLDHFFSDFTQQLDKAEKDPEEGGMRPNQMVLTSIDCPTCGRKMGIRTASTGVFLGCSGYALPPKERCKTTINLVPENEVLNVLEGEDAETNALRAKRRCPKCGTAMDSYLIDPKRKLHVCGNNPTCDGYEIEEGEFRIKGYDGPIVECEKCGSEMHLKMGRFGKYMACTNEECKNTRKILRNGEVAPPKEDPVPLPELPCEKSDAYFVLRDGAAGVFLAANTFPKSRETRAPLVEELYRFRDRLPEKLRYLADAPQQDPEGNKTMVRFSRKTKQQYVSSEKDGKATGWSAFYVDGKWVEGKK
Chain of UniProt Q80XZ4 (whole entry, unmodified, looked up): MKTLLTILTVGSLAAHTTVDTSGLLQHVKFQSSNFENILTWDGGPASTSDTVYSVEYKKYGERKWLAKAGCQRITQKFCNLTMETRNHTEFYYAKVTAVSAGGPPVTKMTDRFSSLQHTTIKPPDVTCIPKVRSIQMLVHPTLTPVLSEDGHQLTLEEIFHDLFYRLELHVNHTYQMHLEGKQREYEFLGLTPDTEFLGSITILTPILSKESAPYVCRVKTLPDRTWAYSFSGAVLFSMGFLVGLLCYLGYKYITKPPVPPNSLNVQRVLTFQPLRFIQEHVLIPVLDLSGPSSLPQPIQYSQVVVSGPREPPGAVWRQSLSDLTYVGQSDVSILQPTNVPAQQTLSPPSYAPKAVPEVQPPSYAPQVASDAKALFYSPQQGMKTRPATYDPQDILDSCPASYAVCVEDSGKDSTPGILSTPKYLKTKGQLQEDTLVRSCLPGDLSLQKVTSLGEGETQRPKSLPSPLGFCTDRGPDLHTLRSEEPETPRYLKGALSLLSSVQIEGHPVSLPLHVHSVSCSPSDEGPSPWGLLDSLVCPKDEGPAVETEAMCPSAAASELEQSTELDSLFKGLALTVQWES
Chain of UniProt P10081 (whole entry, unmodified, looked up): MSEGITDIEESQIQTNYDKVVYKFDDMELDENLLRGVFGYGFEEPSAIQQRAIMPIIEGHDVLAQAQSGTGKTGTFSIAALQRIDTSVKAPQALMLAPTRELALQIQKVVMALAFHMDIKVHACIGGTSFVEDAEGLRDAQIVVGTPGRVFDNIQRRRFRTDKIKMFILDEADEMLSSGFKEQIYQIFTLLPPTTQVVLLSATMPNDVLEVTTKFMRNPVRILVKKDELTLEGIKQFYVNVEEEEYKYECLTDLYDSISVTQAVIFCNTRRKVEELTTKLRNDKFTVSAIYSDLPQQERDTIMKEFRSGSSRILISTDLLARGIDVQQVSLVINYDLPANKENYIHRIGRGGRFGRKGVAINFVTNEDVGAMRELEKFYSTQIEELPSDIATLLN

Substance	target or system	assay	system	setting	endpoint	result
KYKLADYRYGREEMLALYVK (GIGYF1(33-52) peptide; sequence looked up)	EIF4E2	binding, isothermal titration calorimetry	peptide	pH 7.0, 20 °C	Kd	360 nM
B1 (UGT1A9)	COc1cccc(-c2oc3ccccc3c(=O)c2O)c1	steady-state kinetics	–	pH 7.4, 37 °C	Vmax/Km	46000 µL/min/mg
B2 (NEDD4L 492-581)	SCN9A/CALM1 SCN9A ; CALM1 (Homo sapiens)	SEC	–	–	binding	binds
Insulin human	–	ELISA	rat, hippocampus	intranasal, 20 µg per nostril, 120 min	concentration	8.3 ± 4.9 pg/mg tissue
{VPS26(1–321)}-TAQPELYLLNT[SeMet] (SLC11A2 549-560 (Homo sapiens, UniProt P49281); SeMet = C[Se]CC[C@H](N)C(=O)O; sequence looked up)	VPS26A fragment (Homo sapiens)	crystal structure	peptide	–	binding	binds
pdp1 (Schizosaccharomyces pombe, UniProt O59676)	histone H4 (Homo sapiens, UniProt P62805)	pull-down	–	–	binding	binds
GAGUUGAGUUGAGUUGAGUUGAGUUGAGUUGAGUUGAGUUGAGUUGAGUUGAGUU (ssRNA; single strand)	mtrB full length assumed T30V/K56V (Bacillus subtilis, UniProt P19466)	filter binding	–	together with: L-tryptophan 1 mM	Kd	98 ± 9 nM
B3 (enzyme)	CC(=O)OCC1=C(C(=O)O)N2C(=O)[C@@H](NC(=O)Cc3cccs3)[C@H]2SC1	steady-state kinetics	–	pH 7	kcat/Km	12000 ± 1000 M⁻¹ s⁻¹
B4 (CITED2/HIF1A 216-246/796-826)	Crebbp 340-439 (Mus musculus, UniProt P45481)	crystal structure	peptide	NaCl 50 mM	binding	binds
B5 (rI 25-97)	holin T periplasmic domain 56-218, Cys175-Cys207 disulfide (UniProt P06808)	crystal structure	–	–	binding	binds
B6 (recA 2-353)	topA 1-597 (Escherichia coli, UniProt P06612)	pull-down	–	together with: ATP 5 mM	binding	binds
NYVFFPSLKPSSSIDEYFSEQPLKNLLLSTSEEQIEKCFIIENISTIA (IFNAR1 465-512 (Homo sapiens, UniProt P17181))	TYK2 23-566 (Homo sapiens, UniProt P29597)	SEC	peptide	–	binding	binds
EYSEEELKT (also: fluorescent label and quencher, sites not given here; sequence looked up)	SIRT3 (Homo sapiens, UniProt Q9NTG7)	enzyme activity, substrate, continuous fluorescence	peptide	5 to 15 min, pH 8.0, 37 °C, enzyme 0.4 µM, buffer 2, together with: NAD+ 1 mM	Km	4.75 ± 0.79 µM
S. cerevisiae FACT complex	HTB1/HTA1 (Saccharomyces cerevisiae, UniProt P02293+P04911)	ITC	–	second of two sites	Kd	1620 nM
B7 (UBE2D3)	T1, Nedd4 HECT domain	SPR	–	–	binding	binds
B8 (MACROD2 7-243)	PARP1 automodified, auto-ADP-ribosylated (Homo sapiens, UniProt P09874)	pull-down	–	4 °C	binding	binds
MPIALDHILNKFWILHYAGSGSSG (SPAM peptide F4A; peptide-RNA fusion)	CD274 ectodomain (Homo sapiens)	radioligand binding	peptide	1 h, 4 °C	binding	binds
B9 (TIF4631 572-853 K590R)	TIF1 E28C/G370C, Alexa488/Alexa546 labels (Saccharomyces cerevisiae, UniProt P10081)	conformation of molecule, smFRET	–	–	binding	binds
NBN (Homo sapiens, UniProt O60934)	RBBP8, phosphorylated (Homo sapiens, UniProt Q99708)	pull-down	–	–	binding	binds
B10 (tatA I15C)	tatA (Escherichia coli, UniProt P69428)	EPR spectroscopy	–	spin dilution, in detergent, together with: MTSL label	binding	binds
B11 (RNase B unfolded, reduced)	MNL1/PDI1 C579S/C644S (Saccharomyces cerevisiae)	pull-down	–	30 min, 30 °C	binding	binds
KYKLADYRYGREEMLALFLK (GIGYF2(35-54) peptide; sequence looked up)	EIF4E2	binding, isothermal titration calorimetry	peptide	pH 7.0, 20 °C	Kd	290 nM
MAIFLDHILNKFWILHYAGSGSSG (SPAM peptide P2A; peptide-RNA fusion)	CD274 ectodomain (Homo sapiens)	radioligand binding	peptide	1 h, 4 °C	binding	binds
BLM, hyperphosphorylated (Homo sapiens, UniProt P54132)	TOPBP1 (Homo sapiens, UniProt Q92547)	pull-down	–	–	binding	binds
human neutrophil elastase	Protein S100-A9 (S100A9, Homo sapiens, UniProt P06702)	ELISA	–	up to 100 nM	binding	no binding
B12	Il22ra1 16-228 N80D/N87D/T89Q (Mus musculus, UniProt Q80XZ4)	crystal structure	–	–	binding	binds
SLN[pY]IDLDLVK[dPEG8]LST[pY]ASINFQK (phospho-Tyr, PEG8-linked dimer; pY = N[C@@H](Cc1ccc(OP(=O)(O)O)cc1)C(=O)O)	PTPN11 (Homo sapiens, UniProt Q06124)	phosphatase activity, activator	–	wild-type enzyme, together with: DiFMUP 200 µM	EC50	250 nM
B13 (PUM2 471-704)	CNOT1/CNOT2/CNOT3 NOT module 1833-2361 (Homo sapiens)	pull-down	–	–	binding	binds
B14 (SFN 1-231)	MAPT full-length 2N4R, PKA phosphorylated (UniProt P10636-8)	cross-linking	–	–	binding	binds
nqo4 (Thermus thermophilus, UniProt Q56220)	nqo7/nqo8/nqo10/nqo11/nqo12/nqo13/nqo14 membrane domain (Thermus thermophilus)	SEC	–	–	binding	binds

A few entries again:
Substance	target or system	assay	system	setting	endpoint	result
GAGUUGAGUUGAGUUGAGUUGAGUUGAGUUGAGUUGAGUUGAGUUGAGUUGAGUU (ssRNA; single strand)	mtrB full length assumed T30V/K56V (Bacillus subtilis, UniProt P19466)	filter binding	–	together with: L-tryptophan 1 mM	Kd	98 ± 9 nM
B3 (enzyme)	CC(=O)OCC1=C(C(=O)O)N2C(=O)[C@@H](NC(=O)Cc3cccs3)[C@H]2SC1	steady-state kinetics	–	pH 7	kcat/Km	12000 ± 1000 M⁻¹ s⁻¹
B4 (CITED2/HIF1A 216-246/796-826)	Crebbp 340-439 (Mus musculus, UniProt P45481)	crystal structure	peptide	NaCl 50 mM	binding	binds
B5 (rI 25-97)	holin T periplasmic domain 56-218, Cys175-Cys207 disulfide (UniProt P06808)	crystal structure	–	–	binding	binds
B6 (recA 2-353)	topA 1-597 (Escherichia coli, UniProt P06612)	pull-down	–	together with: ATP 5 mM	binding	binds
